Assay results collected from several papers.
Every numbered part comes from another study and shows a few of its results, in no order.

Series 1
Target: Prothrombin, mature alpha-thrombin (F2, Homo sapiens, UniProt P00734)
Method: aptamer microarray, sandwich
Molecule type: DNA with 2'F-ANA
Matrix: in vitro
Tested at: 200 nM
Setting: whole 15-mer aptamer, many near background
Added: Cy3 exosite-II aptamer, 400 nM
Direction: higher = stronger binding
Sequence: GGTTGGTGTGGTTGG
Modification | mean fluorescence intensity [a.u.]
2'F-ANA at 1 2 3 4 5 6 7 9 15 | 62.9
2'F-ANA at 4 5 6 8 9 10 11 12 | 67.1
2'F-ANA at 1 2 4 6 8 | 133
2'F-ANA at 2 4 5 6 8 11 12 15 | 112
2'F-ANA at 2 5 6 7 8 12 14 15 | 50.8
2'F-ANA at 1 2 3 4 5 11 13 14 15 | 46.6
2'F-ANA at 6 7 8 | 569
2'F-ANA at 1 2 5 9 10 11 12 13 14 | 49.5
2'F-ANA at 1 2 4 6 8 9 10 11 12 13 14 15 | 53.4
2'F-ANA at 1 5 6 10 11 12 13 | 51.5
2'F-ANA at 2 3 8 9 10 12 13 14 | 301
2'F-ANA at 4 6 7 10 11 15 | 72.8
2'F-ANA at 1 3 6 10 11 12 14 15 | 58.7
2'F-ANA at 3 4 9 13 | 483
2'F-ANA at 2 4 5 6 9 11 13 | 95.7
2'F-ANA at 2 3 7 8 9 10 13 14 | 302

Series 2
Target: RING finger protein unkempt homolog, zinc fingers 1-6, SBP tag (UNK, Homo sapiens, UniProt Q9C0B0, residues 30-357)
Sequence of UniProt Q9C0B0 (30-357, looked up): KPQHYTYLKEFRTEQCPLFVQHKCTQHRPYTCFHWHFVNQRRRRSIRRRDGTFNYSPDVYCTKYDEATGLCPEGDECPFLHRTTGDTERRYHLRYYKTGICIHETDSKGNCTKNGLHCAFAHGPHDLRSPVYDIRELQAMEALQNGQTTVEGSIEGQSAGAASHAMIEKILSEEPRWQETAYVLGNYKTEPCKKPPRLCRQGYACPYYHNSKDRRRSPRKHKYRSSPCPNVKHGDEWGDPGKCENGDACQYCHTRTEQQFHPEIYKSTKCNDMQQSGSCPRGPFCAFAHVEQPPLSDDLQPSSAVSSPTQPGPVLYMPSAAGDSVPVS
Method: RNA Bind-n-Seq
Molecule type: RNA
Matrix: in vitro
Tested at: 100 nM
Setting: RNA with constant flanks, vertebrate orthologous sites, ends assumed
Baseline: input RNA pool
Direction: higher = stronger binding
Sequence | bound/input enrichment [ratio]
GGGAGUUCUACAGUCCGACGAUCGCUGAGUGACUUUGGACGUCCGUGUUAUCUCCCUGUGGAGACUGCGAAGUCCCGGGCCUUUCCGUGACCCGAGGUUCCUGCUGUCAAGAUGCUGCGCCAGAUUCUCGGCCAGGCCAAGAACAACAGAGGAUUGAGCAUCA | 0.122
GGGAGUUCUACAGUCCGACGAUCGCUCUAGUUCUUAAGAACCAACACUUGUAAGAGAUUUAGAAAAAAGUUUACAACAUAAUCUAGUUUACCGAAGGAGCCUUGUGCUAGAAUACUUUUUAAAAAGUAUUUUUGAAUACUAUUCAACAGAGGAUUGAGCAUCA | 0.554
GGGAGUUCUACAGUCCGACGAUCGUGGCACCCACUGUGAGAGGGAGUAGGGGGAGCCCAGGAUGACCCUCGGCUGUUCCAGUUAAGUAUUUUUUCUUUUUUUAAAAUUACUGUAUUUAUUAUGACGAUGGUGACUCCCCAGUGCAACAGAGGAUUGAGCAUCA | 0.492
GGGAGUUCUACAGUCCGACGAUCGACCUCCUGAACGUCUAGCUUUCAAGCUGUGGCUGUUUUAGAUACUGGUUUUAUUUUCGUUACAGUUUUUCCCUGUUUCCCACCUUCUCUCCCCUUCUUCCCAAGGUCUGACUCAUGGAUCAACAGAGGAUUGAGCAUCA | 1.2
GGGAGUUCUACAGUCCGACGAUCCUACUAUAAACAACUCAGGGCAGUACUCUCGAUAUCCUUACAGUAACCUGAAUCAGGGAUUAGUUAACAAUACAGGGAUGAAUCAGAAUUUAGGCCUUACAAAUAAUACUCCAAUGAAUCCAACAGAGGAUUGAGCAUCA | 1.4
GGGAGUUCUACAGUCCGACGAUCUUGCCUACAAUAAUGAAAACCUACAGGAAUUUUUAUUUUUCAUUUUCCCCUUAGGCAUAGUUAGUCUUUUCCCCCCCCAGGCAGAUCAUUCUGAGUGUGCGAGUGUGUGUGCACAUGUUACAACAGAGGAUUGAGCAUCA | 0.768
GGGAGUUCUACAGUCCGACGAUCCUACUAUAAACAACUCAGGGCAGUAUUCUCGAUAUCCUUACAGUAAUCUAAAUCAGGGAUUAGUUAACAAUACAGGGAUGAAUCAAAAUUUAGGCCUUACAAAUAAUACUCCAAUGAAUCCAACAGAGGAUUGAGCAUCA | 1.67
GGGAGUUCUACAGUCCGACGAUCUGGGUUACUCCUAUUAUUAUCAAGUAGCUGGAAUUGUGAAGGUCAGAGUAGUUAGAUCUUUAGCUUUUAUUCCUUAUUUUUUUGUAUUACUAUCCAUGUGUAUAAAUUAUUGAUCAUGUUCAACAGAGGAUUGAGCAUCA | 2.54
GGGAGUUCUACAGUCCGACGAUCUCUUUUUCCAGGUUGGAUGUAGUGGCAAAGUCAUAGGAAUUGAUCACAUUAAAGAGCUAGUAGAUGACUCGAUAAAUAAUGUCAGAAAGGAUGAUCCAGCACUUCUGUCUUCUGGGAGAGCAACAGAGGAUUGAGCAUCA | 0.754
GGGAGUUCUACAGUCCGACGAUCUUGUUUUGUACAGGGCAUUCUCUGUACGAAUUUGUUGUGGUUAUAAAACAAUUAGCAAAACAGCUUACAUUUGUAUUUAUUUUCUAUUCCAUAUCUCUACCCCAUGUUUUUCCUCCUCAACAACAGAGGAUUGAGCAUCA | 0.708
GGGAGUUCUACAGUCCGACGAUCCAACUCCAUGGUGGAGGGCUCAGAGCUCAAAAAGCUUCGCUCCAACUCCAGAAUUUACCACCGGUAUUUUCUCCUGGACGCUGACAUGCAGAGCCUGAGAUGGGAACCAUCCAAGAAGGACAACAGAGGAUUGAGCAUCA | 0.121

Series 3
Target: Interferon regulatory factor 3, full length, phosphomimetic (IRF3, Homo sapiens, UniProt Q14653, residues 1-427, S386D/S396D/S398D/S402D/T404D/S405D)
Method: protein-binding microarray
Molecule type: double-stranded DNA, one strand shown
Matrix: in vitro
Tested at: 2540 nM top
Setting: 60-bp whole probe
Added: salmon DNA 0.4 mg/ml
Baseline: random background probes
Direction: higher = stronger binding
All sequences stand within: GCCTAGCAC … GTCTTGATTCGCTTGACGCTGCTG
Residues (chain): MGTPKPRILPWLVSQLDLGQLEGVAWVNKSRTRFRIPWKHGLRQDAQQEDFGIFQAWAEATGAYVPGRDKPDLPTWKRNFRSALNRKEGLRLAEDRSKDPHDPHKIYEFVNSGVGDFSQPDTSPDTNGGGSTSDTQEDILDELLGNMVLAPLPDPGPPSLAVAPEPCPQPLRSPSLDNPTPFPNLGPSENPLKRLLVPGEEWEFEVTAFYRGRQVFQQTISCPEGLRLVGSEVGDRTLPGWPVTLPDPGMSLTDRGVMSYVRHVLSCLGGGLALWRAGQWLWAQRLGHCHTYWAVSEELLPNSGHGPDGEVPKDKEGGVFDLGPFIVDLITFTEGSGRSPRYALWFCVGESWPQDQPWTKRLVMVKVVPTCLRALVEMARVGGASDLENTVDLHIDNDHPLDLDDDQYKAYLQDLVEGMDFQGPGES
Sequence | fitted relative affinity [z-score]
TAGTCTCTTCTGCAGCCTTTGTGCTAG | 0.368
GCAACACTCACCATGGCTAGGTGCTAG | 0.041
TGTTTCCTCTTTCTTTGCTTGTGCTAG | 6.33
GACGGTATCGGGCTGGGGACGTGCTAG | 0.536
TTAGAACTGAGTATCGGTTAGTGCTAG | 0.877
TCACCAATGCTTCTGGTACTGTGCTAG | -0.354
TCATTTTCCATTTTGTGACTGTGCTAG | 7.15
TTAGGTATGCTTATCCTTTAGTGCTAG | 0.164
GTGATCCGTCCGCCTCAGCCGTGCTAG | 0.422
GACGGTATAGACACTGGGGACGTGCTA | -0.52
GGTCCTCTAGGAATGTAACTGTGCTAG | 0.15
GACGGACTGGACACTGCGGACGTGCTA | -0.668
TGGCCTGTGCTATTTATAAGGGTGCTA | -0.282
TCAGAACTGAGTTTCGATTAGTGCTAG | 2.92
TCAGAACTGAGACTGGATTAGTGCTAG | 0.121
TCACTTCCCAATTCTCTTACTGTGCTA | 3.28
TTAGATTCCAGTTTCGTTTAGTGCTAG | 4.92
GACGATATAAGTATCGAGACGTGCTAG | 0.313
GAAGATATCAGTCTCGAGACGTGCTAG | 0.887

Series 4
Target: Centromere-binding protein 1, full length, N-terminal tag (CBF1, Saccharomyces cerevisiae, UniProt P17106, residues 1-351)
Sequence of UniProt P17106 (whole entry, looked up): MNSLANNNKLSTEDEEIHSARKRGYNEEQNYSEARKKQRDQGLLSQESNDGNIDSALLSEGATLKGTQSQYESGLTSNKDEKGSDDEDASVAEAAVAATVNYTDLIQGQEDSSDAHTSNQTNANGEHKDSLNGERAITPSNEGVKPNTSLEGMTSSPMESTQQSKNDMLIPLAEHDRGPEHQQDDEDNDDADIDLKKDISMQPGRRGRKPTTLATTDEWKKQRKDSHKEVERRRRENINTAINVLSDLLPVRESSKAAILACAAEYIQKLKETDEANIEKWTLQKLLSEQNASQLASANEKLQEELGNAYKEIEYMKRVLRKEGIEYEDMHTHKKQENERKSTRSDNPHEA
Method: protein-binding microarray
Molecule type: double-stranded DNA, one strand shown
Matrix: in vitro
Tested at: 0.8 µM
Setting: whole 60-bp probe, no competitor
Direction: higher = stronger binding
Sequence | fluorescence intensity [a.u.]
TGTACGAAGCTATGACACGTGGGTATAGTAGTTAGGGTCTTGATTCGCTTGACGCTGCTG | 3800
GAAACGCTATACATTTACGTGCTGAGCTCCTAGTAGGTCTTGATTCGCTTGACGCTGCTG | 523
CTATGTAGTCCTCAACATGTGCAGACGAATAAATTCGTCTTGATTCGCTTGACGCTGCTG | 640
TGTACGAAGCTATGAGGTGTGATTATAGTAGTTAGGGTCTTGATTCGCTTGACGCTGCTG | 562
CTATTCATTCCGTGGTGCGTGATCTGATGAGAATTCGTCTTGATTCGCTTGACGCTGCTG | 1190
CTACCGTATAGAAAACGCGTGGCTGGTAGCTTTTTCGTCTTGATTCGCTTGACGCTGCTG | 550
CTACTGGAAGAAAAACACATGACCAGAATGATATTCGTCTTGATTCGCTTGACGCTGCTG | 2720
GAAAATACTGAGTGTCACGTTAATAATACGGATTAGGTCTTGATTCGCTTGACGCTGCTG | 1010
CTACGGTGGAGCATGCATGTGCTTACTAGAAGTTTCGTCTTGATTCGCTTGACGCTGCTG | 620
CTATTTAGTGAACCCAACATCACGAATAAGAAATTCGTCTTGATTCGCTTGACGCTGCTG | 554
CTATGCCTATTGCGTCATCAGCGACTCCGCGCCTTCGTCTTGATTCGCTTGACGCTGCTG | 503
CTATTTTTTCTTTCTTGCGTGGTATGTTAGAAGTTCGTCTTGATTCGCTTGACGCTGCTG | 560
CTATTAGTAGGCCCAGGTGAGCCTGTGCCGAACTTCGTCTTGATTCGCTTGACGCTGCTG | 471
GAACTCTGTACTGGCTACGTGCCATGCTGGCCTTAGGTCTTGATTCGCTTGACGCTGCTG | 2610
CCTAACTACTATATGCACGTTTAATAGCTTCGTACAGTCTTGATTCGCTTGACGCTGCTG | 544
CTAATTCTGCCAAAAAACGTGAATACTCTATGTTTCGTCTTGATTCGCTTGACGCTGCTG | 589
CCTAACTACTATATGGGCGTGCAATAGCTTCGTACAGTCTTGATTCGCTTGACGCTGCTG | 507
CTACGTTTTATATATCACGCTAAAGTGAGACTATTCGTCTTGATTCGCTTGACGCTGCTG | 616
CTAAAAAGAATTCATCACCTAAACTCACTAATCTTCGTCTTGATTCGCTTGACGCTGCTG | 463
GAAATTCCTAGTCTTTTCGTGAGTTCTTGATATTAGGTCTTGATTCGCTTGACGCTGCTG | 515
CTATATCTAGTAACGCACGCTCTTTTGCAAAAATTCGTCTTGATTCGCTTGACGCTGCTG | 535
CTATTGATGCTCGCCAACGTGAGATAGCTGGTCTTCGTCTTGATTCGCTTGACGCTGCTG | 517
GAATTCTACTATCACCTGTTCATGATATTATGGTAGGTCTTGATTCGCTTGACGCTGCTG | 1590
CCTAACTACTATAATCAGGAGAAATAGCTTCGTACAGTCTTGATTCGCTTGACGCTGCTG | 512
CTACCGTCCGCACATGATGTCATTTCCCCCTCATTCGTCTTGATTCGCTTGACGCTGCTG | 1450

Series 5
Target: Histone acetyltransferase KAT6A, both winged helices, GST fusion (KAT6A, Homo sapiens, UniProt Q92794, residues 1-181)
Method: protein binding microarray
Molecule type: double-stranded DNA, one strand shown
Matrix: in vitro
Tested at: not given
Setting: 8-mer, flanks averaged, mean of 2 arrays, mostly near background
Baseline: not given
Direction: higher = stronger binding
Target sequence (chain): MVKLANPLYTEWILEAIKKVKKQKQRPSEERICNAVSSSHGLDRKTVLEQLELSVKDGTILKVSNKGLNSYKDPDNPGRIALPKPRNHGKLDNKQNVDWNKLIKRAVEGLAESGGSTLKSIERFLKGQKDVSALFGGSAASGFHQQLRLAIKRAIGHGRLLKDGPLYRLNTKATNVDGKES
Sequence | E-score
ATGTGGAG | -0.153
ACTACTCA | -0.066
ATAGCTGA | -0.0345
AGACGTCG | 0.0745
GGACATAC | 0.0556
GTGCTGTA | -0.0522
GAACACGA | -0.0713
AAACCGAT | 0.0735
GATGCCGC | 0.232
AGACTAAT | -0.131
CTCGCAGC | -0.0132
CGACGTCC | 0.128
CCTATTTA | -0.093
CGCTGGAA | 0.15
AAAGCTTA | -0.058
AGCGATTG | 0.0545
AAGCGTTC | 0.0131
CAGCTTTC | 0.0155
AGTGGAAC | -0.0419
GTCCGCCA | 0.0979
ACCTATAA | -0.117
GCCGCTTA | 0.197
GACTAATC | 0.0609
ACCGTGGA | 0.13
ATGATACG | 0.0226
